Measured values gathered from unrelated publications.
Compare with care: the assays were run in different laboratories. “And” joins repeats or separate records; there may be more than shown. Numbers after ± are the reported error.

Structure (SMILES)	assay	system	setting	how to read	quantity	value
COc1cccc(OC)c1-c1cc(C(=O)NC2(C(=O)O)C3CC4CC(C3)CC2C4)nn1-c1ccc(C(=O)N(C)CCCN(C)C(=O)[C@H](CCCCNC(=O)[C@H](CC(C)C)NC(=O)C2OC2C(=O)O)NC(=O)CN2CCN(CC(=O)[O-])CCN(CC(=O)[O-])CCN(CC(=O)[O-])CC2)cc1C(C)C.[177Lu+3] (mixture of isomers)		mouse, HT-29 xenograft, kidney	4 h post injection		tissue uptake	9.9 %ID/g
C=C(NC(=O)c1csc(-c2nc3c(cc2O)-c2nc(cs2)C(=O)NC(C(C)O)C(=O)NC(=C(C)OC)c2nc(cs2)C(=O)NC2c4nc(cs4)C(=O)NC(COC(=O)c4c5c6c(cccc6n4O)COC(=O)C(OC4CC(C)(O)C(N(C)C)C(C)O4)C2OC5)c2nc-3cs2)n1)C(N)=O (stereo not shown)		ICR mice, Streptococcus pneumoniae ATCC 49169 infected, immunocompromised, blood	intravenous, 16 mg/kg/day three times daily		AUC(0-t)	1460 ng·h/mL
O=C1C2CC3CC1CC(C(=O)N1CCN(c4ccc([N+](=O)[O-])c5ncccc45)CC1)(C3)C2		male ICR mouse, plasma	oral, 5 mg/kg		AUC(0-inf)	46.6 ng·h/mL
CN([O-])C(=O)CN1CCN(CC(=O)N(C)[O-])CCN(CC(=O)N(C)[O-])CC1.[89Zr+4]	radio-TLC	human serum	2 days, run 1		intact complex	100%
CCc1cnc(NC(=O)c2cc(S(=O)(=O)N3CCOCC3)ccc2N(C)C2CCCC2)s1		mouse, serum	10 mg/kg, 3 doses		Amylase	698 IU/L
N#C[C@@H]1CCCN1C(=O)CNC(=O)c1ccnc2ccc(OCCCN3CCN(C(=O)CCc4ccc(O)c(CN5CCN6CC(=O)[O][Al-]([18F])([O]C(=O)C5)[O]c5ccc(CCC(=O)N7CCN(CCCOc8ccc9nccc(C(=O)NCC(=O)N%10CCC[C@H]%10C#N)c9c8)CC7)cc5C6)c4)CC3)cc12 (stereo partly shown)		BALB/c nude mice, U-87 MG tumour	120 min post-injection	reference: tumour over muscle	tumour-to-organ ratio	16.8 ± 3.47
CCCCN1C(=O)c2cccc3c(NCCCCCCCCN4CCOCC4)ccc(c23)C1=O		1,4-dioxane			fluorescence quantum yield	1.09
CN(Cc1ccccc1)C(=O)CN1CCN(CC(=O)[O-])CCN(CC(=O)N(C)Cc2ccccc2)CC1.[44Sc+3]		mouse, heart	intravenous, 1 h		tracer uptake	0.49 %ID/g
CN1CCN(C(=S)N/N=C/c2ccccc2O)CC1		plasma	intravenous, 30 mg/kg		MRT(0-inf)	0.53 ± 0.24 h
COc1cccc(OC)c1-c1cc(C(=O)NC2(C(=O)O)C3CC4CC(C3)CC2C4)nn1-c1ccc(C(=O)N(C)CCCN(C)CCCN(C)C(=O)[C@H](CCCCNC(=O)[C@H](CC(C)C)NC(=O)C2OC2C(=O)O)NC(=O)CN2CCN(CC(=O)[O-])CCN(CC(=O)[O-])CCN(CC(=O)[O-])CC2)cc1C(C)C.[177Lu+3] (mixture of isomers)		mouse, HT-29 xenograft, kidney	4 h post injection		tissue uptake	10.3 %ID/g
CC(C)c1cnc(-c2cc(Cl)ccc2F)cc1Nc1ccncc1C(=O)NC(CO)CO		female C57BL/6 mice, plasma	oral, 30 mg/kg twice daily, day 7, MC-38 tumour-bearing, tau 8 h		unbound AUC(0-tau)	0.307 µM·h
CC[C@H](C)[C@@H]1NC(=O)[C@H](Cc2ccc(O)cc2)NC(=O)CCCSC[C@@H](C(=O)N(CC(=O)N[C@@H](CC(C)C)C(=O)NCC(N)=O)Cc2ccc(F)cc2)NC(=O)[C@H](CC(N)=O)NC(=O)[C@H](CCC(N)=O)NC1=O		human	intranasal, 50 µg repeated doses		drug-related headache	33%
CN(Cc1ccccc1)C(=O)CN1CCN(CC(=O)[O-])CCN(Cc2cccc(C(=O)[O-])n2)CC1.[44Sc+3]		mouse, bone	intravenous, 1 h		tracer uptake	0.49 %ID/g
CC(C)n1ncc2c(C(=O)NC[C@@H](C)N)cc(C3CC3)nc21		female BALB/c mouse, plasma	intraperitoneal, 30 mg/kg, 2 h		concentration	1080 ng/mL
O=C(CCCCCCCCCCCCCCCCC(=O)Oc1c2n(cc(C(=O)NCc3c(F)cc(F)cc3F)c1=O)CC1OC3CCC(C3)N1C2=O)Oc1c2n(cc(C(=O)NCc3c(F)cc(F)cc3F)c1=O)CC1OC3CCC(C3)N1C2=O (stereo not shown)		rat plasma	1 µM, 24 h, 1% methanol		prodrug hydrolysed	45%
Cc1n[nH]c(C)c1CCCOc1cc(C(=O)NCCCCC(NC(=O)CN2CCN(CC(=O)[O-])CCN(CC(=O)[O-])CCN(CC(=O)[O-])CC2)C(=O)NCC2CCC(C(=O)NC(Cc3ccc4ccccc4c3)C(=O)NCCCCC(NC(=O)NC(CCC(=O)O)C(=O)O)C(=O)O)CC2)ccc1F.[177Lu+3] (stereo not shown)		BALB/c mouse, blood	intravenous		elimination half-life	1.24 h
O=C(Nc1cnccc1-c1ccc([18F])nc1)c1ccnc(NC(=O)C2CC2)c1	PET imaging	normal FVB/NJ mouse, both sexes, brain	intravenous, first 5 min post-injection		SUV	0.2 ± 0.09
C=CC(=O)Nc1cc(Nc2nccc(-c3c[nH]c4ccccc34)n2)c(OC)cc1N(C)CCN(C)C	storage stability	human dried blood spots	24 h, -80 °C, LLOQ level		recovery	82.6%
CN(Cc1ccccc1)C(=O)CN1CCN(CC(=O)[O-])CCN(CC(=O)[O-])CC1.[18F-].[Sc+3]		mouse, stomach	intravenous, 1 h		tracer uptake	0.1 %ID/g

Structure (SMILES)	assay	system	setting	how to read	quantity	value
CC(C)(C)NCC(SS(=O)(=O)O)c1ccccc1 (stereo not shown)		Swiss Webster mice, Schistosoma mansoni-infected	100 mg/kg x 2 doses from day 42 post-infection, perfusion day 56 post-infection		body weight	36.2 g
CN(Cc1ccccc1)C(=O)CN1CCN(CC(=O)N(C)Cc2ccccc2)CCN(Cc2cccc(C(=O)[O-])n2)CC1.[44Sc+3]		mouse, blood	intravenous, 1 h		tracer uptake	2.17 %ID/g
CC(C)(O)c1ccc(N2Cc3c(ccnc3-c3ccc(F)cc3OCC(F)(F)F)C2=O)cc1		male C57BL/6 mouse, plasma	oral, 300 mg/kg, 6 h		concentration	16900 ng/mL
COc1ccccc1/C=C/CNCC(O)COc1ccc(Nc2ccccc2)cc1 (racemic)		mouse, plasma	oral, 10 mg/kg		MRT(0-t)	0.69 h
Cc1nn(-c2nc3c(F)cc(F)cc3s2)c(O)c1C(c1ccc(C(F)(F)F)cc1)c1c(C)nn(-c2nc3c(F)cc(F)cc3s2)c1O		ICR mouse, plasma	iv, 5 mg/kg		AUC(0-inf) per dose	24400 kg·ng·h/mL/mg and 9670 kg·ng·h/mL/mg and 7900 kg·ng·h/mL/mg
COc1ccccc1NC(=O)OC1C(C)C(OC)C=COC2(C)Oc3c(C)c(O)c4c(c3C2=O)C2=NC3(CCN(CC(C)C)CC3)NC2=C(NC(=O)C(C)=CC=CC(C)C(O)C(C)C(O)C1C)C4=O (stereo not shown)		CD-1 mouse female, plasma	intravenous, 5 mg/kg		elimination half-life	14.1 h
N=C(N)NCCC[C@@H]1NC(=O)[C@H](CO)NC(=O)[C@@H](NC(=O)[C@H](CO)NC(=O)[C@H](CO)NC(=O)[C@H](Cc2c[nH]c3ccccc23)NC(=O)CNC(=O)[C@H](CO)NC(=O)[C@@H](N)Cc2c[nH]c3ccccc23)CSSC[C@@H](C(=O)NCC(=O)O)NC(=O)[C@H](CO)NC1=O		patients, plasma	intravenous, 5 mg/kg, thrice weekly, median		Ctrough	0 ng/mL
O=C(Nc1cnccc1-c1ccc([18F])cc1)c1ccnc(NC(=O)C2CC2)c1	ex vivo gamma counting	GSK-3β transgenic mice, early-stage, cerebellum	intravenous, 120 min, mean, no P-gp inhibitor		SUV	0.05
O=C1NC(=O)/C(=C/c2ccc3ncnc(N4CCC(F)CC4)c3n2)S1					logP	1.77
OC1(C(F)(F)F)CCN(c2nc(Nc3ccnc(C(F)(F)F)c3)nc(-c3cccc(C(F)(F)F)n3)n2)C1 (stereo not shown)		Sprague-Dawley rat, both sexes, plasma	oral gavage, 5 mg/kg, day 14		AUC(0-t)	22500 ± 7260 ng·h/mL
C/C(N)=N/C(=N\S(=O)(=O)c1ccc(C(F)(F)F)cc1)N1C[C@H](c2ccccc2)C(c2ccc(Cl)cc2)=N1		C57BL/6 mouse, heart	intravenous, 10 mg/kg, observed value		AUC(0-inf)	26500 ng·h/mL
CN(O)C(=O)CCC(=O)NCCCN(CCCCN(CCCNC(=O)CCC(=O)N(C)O)C(=O)CCC(=O)N(C)O)C(=O)CCC(=O)N(C)O.[89Zr]	radio-TLC	aqueous buffer	1 d, pH 7.2, 37 °C, 89Zr-labelled complex, added: FeCl3 100-fold excess		intact complex	74.5 ± 0.3%
COC(=O)[C@@]1(C(C)C)C=C(C(=O)Nc2cccc(C(=O)Nc3ccc(Nc4nccc(-c5cccnc5)n4)c(C)c3)c2)C(=O)CC1		rat, blood plasma	10 µM, 60 min		compound remaining	85.5%
O=C([O-])CN1CCN(CC(=O)[O-])CCN(Cc2cccc(C(=O)[O-])n2)CC1.[44Sc+3]		mouse, stomach	intravenous, 1 h		tracer uptake	0.27 %ID/g
CNC(=O)C1CCCN(C(=O)C2CC3CCC2N3C(=O)[C@@H]2C[C@@H](O)CN2C(=O)NCc2cccc(Cl)c2F)C1 (mixture of isomers)	metabolic stability	monkey, liver microsomes			half-life	1.07 h
CN1CCC[C@]1(C)/C=C/S(=O)(=O)NC(=O)Nc1c2c(cc3c1CCC3)CCC2	refers to: laboratory investigations	human	oral, 100 mg twice daily, 14 days, multiple ascending dose		subjects with adverse event	50%
COc1cccc(OC)c1-c1cc(C(=O)NC2(C(=O)O)C3CC4CC(C3)CC2C4)nn1-c1ccc(C(=O)N(C)CCOCCOCCN(C)C(=O)[C@H](CCCCNC(=O)[C@H](CC(C)C)NC(=O)C2OC2C(=O)O)NC(=O)CN2CCN(CC(=O)[O-])CCN(CC(=O)[O-])CCN(CC(=O)[O-])CC2)cc1C(C)C.[177Lu+3] (mixture of isomers)		mouse, HT-29 xenograft	24 h post injection, biodistribution	reference: tumour over muscle uptake	tumour-to-muscle ratio	42
CC(C(=O)O)n1nc(Cn2cc3cc(OCC[18F])c(Cl)cc3n2)c2ccccc2c1=O (racemic)		rat, brain	2 h		tracer uptake	0.01 %ID/g

For quick reference, copied from above:
Structure (SMILES)	assay	system	setting	how to read	quantity	value
CCCCN1C(=O)c2cccc3c(NCCCCCCCCN4CCOCC4)ccc(c23)C1=O		1,4-dioxane			fluorescence quantum yield	1.09
CN(Cc1ccccc1)C(=O)CN1CCN(CC(=O)[O-])CCN(CC(=O)N(C)Cc2ccccc2)CC1.[44Sc+3]		mouse, heart	intravenous, 1 h		tracer uptake	0.49 %ID/g
CN1CCN(C(=S)N/N=C/c2ccccc2O)CC1		plasma	intravenous, 30 mg/kg		MRT(0-inf)	0.53 ± 0.24 h
